Experimental data pooled from the literature.
A part holds a random share of what one study measured.
Chain of UniProt P42336 (whole entry, looked up): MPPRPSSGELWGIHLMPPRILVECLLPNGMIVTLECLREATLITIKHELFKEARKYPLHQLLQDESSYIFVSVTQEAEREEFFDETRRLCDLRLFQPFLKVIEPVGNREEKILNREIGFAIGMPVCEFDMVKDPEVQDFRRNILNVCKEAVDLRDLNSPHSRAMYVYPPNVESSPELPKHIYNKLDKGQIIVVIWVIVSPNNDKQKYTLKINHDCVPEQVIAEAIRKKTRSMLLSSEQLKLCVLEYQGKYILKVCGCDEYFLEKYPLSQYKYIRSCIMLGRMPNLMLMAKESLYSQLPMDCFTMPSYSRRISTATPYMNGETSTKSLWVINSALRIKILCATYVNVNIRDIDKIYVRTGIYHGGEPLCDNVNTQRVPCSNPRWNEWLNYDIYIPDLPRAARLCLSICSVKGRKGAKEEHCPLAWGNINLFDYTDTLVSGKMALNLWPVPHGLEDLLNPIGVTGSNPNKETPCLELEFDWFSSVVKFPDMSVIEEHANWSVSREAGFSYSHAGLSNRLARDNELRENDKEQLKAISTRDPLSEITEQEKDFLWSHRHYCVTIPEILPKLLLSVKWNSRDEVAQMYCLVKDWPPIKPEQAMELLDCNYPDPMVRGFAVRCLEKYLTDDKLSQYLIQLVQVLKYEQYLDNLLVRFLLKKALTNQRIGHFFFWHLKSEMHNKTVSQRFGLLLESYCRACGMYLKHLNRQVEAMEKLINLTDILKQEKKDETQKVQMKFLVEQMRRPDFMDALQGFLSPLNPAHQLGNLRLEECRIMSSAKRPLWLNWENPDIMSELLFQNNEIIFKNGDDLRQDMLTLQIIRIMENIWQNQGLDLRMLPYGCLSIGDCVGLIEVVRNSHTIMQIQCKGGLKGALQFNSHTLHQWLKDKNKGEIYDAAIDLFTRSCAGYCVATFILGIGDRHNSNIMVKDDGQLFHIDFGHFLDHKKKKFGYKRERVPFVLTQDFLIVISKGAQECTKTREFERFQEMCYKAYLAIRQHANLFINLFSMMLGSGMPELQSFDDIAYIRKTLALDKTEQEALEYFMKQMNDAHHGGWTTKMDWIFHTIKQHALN
Chain of UniProt Q16816 (whole entry, looked up): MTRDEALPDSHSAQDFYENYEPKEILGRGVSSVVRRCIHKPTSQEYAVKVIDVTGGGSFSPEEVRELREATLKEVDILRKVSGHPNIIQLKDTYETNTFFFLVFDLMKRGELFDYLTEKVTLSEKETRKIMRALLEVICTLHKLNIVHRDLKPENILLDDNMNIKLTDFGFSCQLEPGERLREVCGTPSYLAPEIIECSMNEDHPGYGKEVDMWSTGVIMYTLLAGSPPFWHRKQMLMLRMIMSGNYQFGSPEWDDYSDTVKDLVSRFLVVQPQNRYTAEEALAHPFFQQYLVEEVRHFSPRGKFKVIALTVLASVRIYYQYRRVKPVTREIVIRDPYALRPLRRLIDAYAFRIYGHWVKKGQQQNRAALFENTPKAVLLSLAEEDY
Chain of UniProt Q99558 (whole entry, looked up): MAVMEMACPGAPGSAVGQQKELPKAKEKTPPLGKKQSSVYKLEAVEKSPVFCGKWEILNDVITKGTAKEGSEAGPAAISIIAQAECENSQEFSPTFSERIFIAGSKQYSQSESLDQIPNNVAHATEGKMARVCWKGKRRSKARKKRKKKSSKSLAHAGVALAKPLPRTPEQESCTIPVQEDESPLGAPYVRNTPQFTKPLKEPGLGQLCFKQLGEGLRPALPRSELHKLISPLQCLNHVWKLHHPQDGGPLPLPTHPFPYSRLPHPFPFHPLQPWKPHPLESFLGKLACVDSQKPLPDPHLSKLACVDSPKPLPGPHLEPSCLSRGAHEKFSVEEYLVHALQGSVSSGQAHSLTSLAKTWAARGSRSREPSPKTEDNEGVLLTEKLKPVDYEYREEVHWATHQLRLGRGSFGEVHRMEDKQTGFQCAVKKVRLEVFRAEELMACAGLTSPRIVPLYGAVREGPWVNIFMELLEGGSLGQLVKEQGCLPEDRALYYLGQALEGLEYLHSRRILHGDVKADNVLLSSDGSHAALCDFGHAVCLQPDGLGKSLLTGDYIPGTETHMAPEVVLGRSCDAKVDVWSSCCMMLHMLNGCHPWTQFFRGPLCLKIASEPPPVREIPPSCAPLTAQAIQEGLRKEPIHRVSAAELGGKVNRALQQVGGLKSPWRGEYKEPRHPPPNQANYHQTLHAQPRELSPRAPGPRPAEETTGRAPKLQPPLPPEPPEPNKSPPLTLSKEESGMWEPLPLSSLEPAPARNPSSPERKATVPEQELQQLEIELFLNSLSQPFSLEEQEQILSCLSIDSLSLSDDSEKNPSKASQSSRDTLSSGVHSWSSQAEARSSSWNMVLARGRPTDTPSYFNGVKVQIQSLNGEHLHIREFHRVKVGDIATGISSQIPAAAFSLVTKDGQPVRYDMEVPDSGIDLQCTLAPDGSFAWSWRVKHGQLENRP
Chain of UniProt Q99683 (whole entry, looked up): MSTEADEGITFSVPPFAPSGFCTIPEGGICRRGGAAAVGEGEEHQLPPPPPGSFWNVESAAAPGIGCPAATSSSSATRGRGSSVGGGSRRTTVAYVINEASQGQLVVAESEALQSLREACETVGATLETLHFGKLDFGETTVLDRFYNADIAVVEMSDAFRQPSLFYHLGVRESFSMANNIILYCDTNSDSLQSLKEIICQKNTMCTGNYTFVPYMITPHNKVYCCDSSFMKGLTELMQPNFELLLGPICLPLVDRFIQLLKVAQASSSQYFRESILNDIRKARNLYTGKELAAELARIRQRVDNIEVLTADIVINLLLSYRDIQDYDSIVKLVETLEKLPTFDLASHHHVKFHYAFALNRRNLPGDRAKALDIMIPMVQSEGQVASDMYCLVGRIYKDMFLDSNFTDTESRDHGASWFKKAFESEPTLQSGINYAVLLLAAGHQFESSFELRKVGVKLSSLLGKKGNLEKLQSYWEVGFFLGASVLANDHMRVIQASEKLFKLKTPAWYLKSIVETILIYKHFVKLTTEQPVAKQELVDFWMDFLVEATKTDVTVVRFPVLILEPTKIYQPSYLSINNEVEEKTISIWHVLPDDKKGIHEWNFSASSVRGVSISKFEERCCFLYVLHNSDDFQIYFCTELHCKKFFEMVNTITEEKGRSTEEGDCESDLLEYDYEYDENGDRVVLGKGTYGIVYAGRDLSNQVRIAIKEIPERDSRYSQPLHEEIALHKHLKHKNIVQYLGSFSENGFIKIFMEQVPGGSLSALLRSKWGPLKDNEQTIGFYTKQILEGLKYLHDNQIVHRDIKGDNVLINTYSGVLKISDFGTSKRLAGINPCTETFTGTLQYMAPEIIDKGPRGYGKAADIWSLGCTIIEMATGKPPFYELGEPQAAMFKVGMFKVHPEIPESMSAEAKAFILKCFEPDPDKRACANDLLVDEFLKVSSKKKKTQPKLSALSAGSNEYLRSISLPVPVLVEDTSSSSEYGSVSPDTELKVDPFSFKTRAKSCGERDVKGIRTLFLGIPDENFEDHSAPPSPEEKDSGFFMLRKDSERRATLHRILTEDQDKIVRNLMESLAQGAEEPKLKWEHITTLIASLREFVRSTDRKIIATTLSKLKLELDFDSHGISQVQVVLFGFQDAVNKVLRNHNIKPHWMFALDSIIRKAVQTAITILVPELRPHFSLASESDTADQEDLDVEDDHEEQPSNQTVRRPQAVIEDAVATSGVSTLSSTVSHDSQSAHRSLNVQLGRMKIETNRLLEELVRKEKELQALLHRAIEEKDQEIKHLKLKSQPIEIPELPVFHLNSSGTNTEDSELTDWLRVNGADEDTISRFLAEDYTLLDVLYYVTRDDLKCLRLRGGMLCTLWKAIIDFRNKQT
Chain of UniProt Q6PHR2 (whole entry, looked up): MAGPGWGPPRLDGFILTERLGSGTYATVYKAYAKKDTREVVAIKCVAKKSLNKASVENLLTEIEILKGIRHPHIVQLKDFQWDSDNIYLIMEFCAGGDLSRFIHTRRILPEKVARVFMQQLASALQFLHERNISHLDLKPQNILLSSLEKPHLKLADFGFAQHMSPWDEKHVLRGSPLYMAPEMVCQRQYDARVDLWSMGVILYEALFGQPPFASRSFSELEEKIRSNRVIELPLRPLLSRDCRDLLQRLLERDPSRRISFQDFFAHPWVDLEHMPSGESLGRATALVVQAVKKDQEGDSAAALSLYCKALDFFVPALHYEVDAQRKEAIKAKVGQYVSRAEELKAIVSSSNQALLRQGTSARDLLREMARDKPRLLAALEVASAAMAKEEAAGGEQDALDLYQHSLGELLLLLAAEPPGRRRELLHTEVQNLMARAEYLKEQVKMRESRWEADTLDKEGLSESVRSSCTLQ
Chain of UniProt Q13153 (whole entry, looked up): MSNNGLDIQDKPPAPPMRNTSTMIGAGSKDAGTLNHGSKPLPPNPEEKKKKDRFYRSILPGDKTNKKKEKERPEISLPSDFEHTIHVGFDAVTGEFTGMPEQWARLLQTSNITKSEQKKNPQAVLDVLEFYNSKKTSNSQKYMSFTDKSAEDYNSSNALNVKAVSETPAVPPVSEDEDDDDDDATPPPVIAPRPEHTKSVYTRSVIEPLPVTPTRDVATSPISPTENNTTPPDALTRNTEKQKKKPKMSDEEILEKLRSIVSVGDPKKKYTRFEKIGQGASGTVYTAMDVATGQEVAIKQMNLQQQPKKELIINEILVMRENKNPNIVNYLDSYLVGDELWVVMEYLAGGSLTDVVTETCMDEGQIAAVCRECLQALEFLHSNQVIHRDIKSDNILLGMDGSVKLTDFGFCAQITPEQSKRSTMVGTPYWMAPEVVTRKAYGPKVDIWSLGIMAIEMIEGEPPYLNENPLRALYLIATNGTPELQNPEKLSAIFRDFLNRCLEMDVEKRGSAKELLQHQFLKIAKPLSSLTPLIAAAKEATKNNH

Block 1
SMILES: CO[C@H]1C[C@@H]2CC[C@@H](C)[C@@](O)(O2)C(=O)C(=O)N2CCCC[C@H]2C(=O)O[C@H]([C@H](C)C[C@@H]2CC[C@@H](O)[C@H](OC)C2)CC(=O)[C@H](C)/C=C(\C)[C@@H](O)[C@@H](OC)C(=O)[C@H](C)C[C@H](C)/C=C/C=C/C=C/1C
Read-out: enzyme activity
Action: inhibitor
Concentration: 0.5 µM
Baseline: control
It gave 97.6% for remaining activity (TAOK2 (Homo sapiens, UniProt Q9UL54)).
It gave 107% for remaining activity (MAP3K5 (Homo sapiens, UniProt Q99683)).
For FRK (Homo sapiens, UniProt P42685): remaining activity read 106%.
For MAP3K14 (Homo sapiens, UniProt Q99558): remaining activity read 105%.
It gave 109% for remaining activity (GSK3B (Homo sapiens, UniProt P49841)).
The remaining activity was 85.6% (ULK3 (Homo sapiens, UniProt Q6PHR2)).

Block 2
SMILES: Nc1c(C(=O)NCc2ccc(C(=O)NCCCC3CCCCC3)cc2)cnn1-c1ccccc1
Read-out: cell-free assay
Technique: competition with immobilised ligand
Concentration: 0.1 µM
The remaining binding was 100% (EPHA2 (Homo sapiens, UniProt P29317)).
It gave 100% for remaining binding (PRKD1 (Homo sapiens, UniProt Q15139)).
The remaining binding was 90% (PHKG1 (Homo sapiens, UniProt Q16816)).
For PAK1 (Homo sapiens, UniProt Q13153): remaining binding read 100%.
It gave 100% for remaining binding (MATK (Homo sapiens, UniProt P42679)).
For SYK (Homo sapiens, UniProt P43405): remaining binding read 74%.
For MAP3K13 (Homo sapiens, UniProt O43283): remaining binding read 100%.
PIK3CA (Homo sapiens, UniProt P42336) — remaining binding: 100%.

Block 3
Species: mouse
Matrix: microsomes or S9
Concentration: 2 µM
Time: 0.5 h
The remaining compound of `COc1ccc(CC(=O)O)cc1Nc1ncc(Cl)c(Nc2ccccc2S(=O)(=O)C(C)C)n1` is reported as 0.968%.
`O=C(c1c(OCC2CC2)cc(=O)n2c1CCOCC2)N1CCN(c2ccccc2F)CC1` has a remaining compound of 20.2%.
`CC(C)CCC1CCN(C(=O)C2CC(O)CN2)CC1` (stereo not drawn) gave a remaining compound of 86.9%.
The remaining compound of `Cc1nnc(-c2nnc(N3CCN(C4CCCCC4)CC3)c3ccccc23)o1` is reported as 48.7%.
For `COc1cc2c(Nc3ccc(Br)cc3F)ncnc2cc1O`, the remaining compound was 16.5%.
For `Oc1c2ccc(-c3ccco3)nc2nn1-c1ccccc1`, the remaining compound was 0.337%.
With `COc1ccc(-n2c(-c3ccc(OCCN(C)C)cc3)nn(Cc3ccccc3)c2=O)cc1` the remaining compound was 86.4%.
With `COc1ccc(Cc2nc(-c3ccc(S(C)(=O)=O)cc3)c(C)s2)cc1` the remaining compound was 49.2%.

Block 4
Cell line: A-375
Concentration: 100 µM
Time: 18 h
With `O=C(/C=C/c1ccc(O)c2c1[C@H](C(=O)O[C@H](Cc1ccc(O)c(O)c1)C(=O)O)[C@@H](c1ccc(O)c(O)c1)O2)O[C@H](Cc1ccc(O)c(O)c1)C(=O)O` the viability was 120%.
The viability of `C=C1[C@H](CO)[C@@H](O)C[C@@H]1n1cnc2c(=O)[nH]c(N)nc21` is reported as 97.8%.
With `CCOC(=O)N[C@@H]1CC[C@@H]2[C@@H](C1)C[C@H]1C(=O)O[C@H](C)[C@H]1[C@H]2/C=C/c1ccc(-c2cccc(F)c2)cn1` the viability was 103%.
With `O=C(O)C[C@H](O)C[C@H](O)/C=C/c1c(C2CC2)nc2ccccc2c1-c1ccc(F)cc1` the viability was 84.7%.
`CO[C@@H]1[C@@H](O[C@@H]2O[C@H](C)[C@@H](O[C@H]3C[C@@](C)(O)[C@@H](O)[C@H](C)O3)[C@H](N(C)C)[C@H]2O)[C@@H](CC=O)C[C@@H](C)[C@@H](O[C@H]2CC[C@H](N(C)C)[C@@H](C)O2)/C=C/C=C/C[C@@H](C)OC(=O)C[C@H]1OC(C)=O` gave a viability of 79.6%.
